Experimental data from different studies.
Numbers after ± are the reported error.
BCHE: Cholinesterase (BCHE, Homo sapiens, UniProt P06276)
Chain of UniProt P06276 (whole entry, looked up): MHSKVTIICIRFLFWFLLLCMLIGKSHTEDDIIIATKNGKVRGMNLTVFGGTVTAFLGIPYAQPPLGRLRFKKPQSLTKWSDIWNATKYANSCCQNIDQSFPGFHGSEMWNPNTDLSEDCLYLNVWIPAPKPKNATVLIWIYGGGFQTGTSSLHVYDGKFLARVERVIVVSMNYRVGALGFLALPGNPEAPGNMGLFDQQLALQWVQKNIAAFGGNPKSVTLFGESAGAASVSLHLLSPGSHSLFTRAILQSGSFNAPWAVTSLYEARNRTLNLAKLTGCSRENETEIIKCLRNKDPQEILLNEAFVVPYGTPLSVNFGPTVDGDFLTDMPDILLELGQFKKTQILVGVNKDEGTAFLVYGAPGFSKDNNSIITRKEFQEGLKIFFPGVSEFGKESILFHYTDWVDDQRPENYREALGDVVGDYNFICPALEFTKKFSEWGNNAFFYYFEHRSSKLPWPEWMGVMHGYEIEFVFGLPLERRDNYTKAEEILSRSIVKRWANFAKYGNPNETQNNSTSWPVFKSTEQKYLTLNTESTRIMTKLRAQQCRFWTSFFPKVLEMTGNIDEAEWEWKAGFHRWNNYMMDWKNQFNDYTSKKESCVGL
Chain of UniProt P14416 (whole entry, looked up): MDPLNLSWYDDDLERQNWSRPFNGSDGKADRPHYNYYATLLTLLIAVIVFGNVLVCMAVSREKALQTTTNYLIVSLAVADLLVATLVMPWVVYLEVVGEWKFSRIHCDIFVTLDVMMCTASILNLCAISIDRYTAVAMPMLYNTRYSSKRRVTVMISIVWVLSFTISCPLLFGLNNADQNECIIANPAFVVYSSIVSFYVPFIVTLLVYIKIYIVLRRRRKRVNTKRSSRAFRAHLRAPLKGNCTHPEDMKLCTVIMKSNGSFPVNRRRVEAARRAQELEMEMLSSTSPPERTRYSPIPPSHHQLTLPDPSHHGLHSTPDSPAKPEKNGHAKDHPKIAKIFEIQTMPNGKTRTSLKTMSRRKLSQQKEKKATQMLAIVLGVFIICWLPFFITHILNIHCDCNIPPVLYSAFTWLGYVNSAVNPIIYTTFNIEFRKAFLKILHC
Chain of UniProt P15823 (whole entry, looked up): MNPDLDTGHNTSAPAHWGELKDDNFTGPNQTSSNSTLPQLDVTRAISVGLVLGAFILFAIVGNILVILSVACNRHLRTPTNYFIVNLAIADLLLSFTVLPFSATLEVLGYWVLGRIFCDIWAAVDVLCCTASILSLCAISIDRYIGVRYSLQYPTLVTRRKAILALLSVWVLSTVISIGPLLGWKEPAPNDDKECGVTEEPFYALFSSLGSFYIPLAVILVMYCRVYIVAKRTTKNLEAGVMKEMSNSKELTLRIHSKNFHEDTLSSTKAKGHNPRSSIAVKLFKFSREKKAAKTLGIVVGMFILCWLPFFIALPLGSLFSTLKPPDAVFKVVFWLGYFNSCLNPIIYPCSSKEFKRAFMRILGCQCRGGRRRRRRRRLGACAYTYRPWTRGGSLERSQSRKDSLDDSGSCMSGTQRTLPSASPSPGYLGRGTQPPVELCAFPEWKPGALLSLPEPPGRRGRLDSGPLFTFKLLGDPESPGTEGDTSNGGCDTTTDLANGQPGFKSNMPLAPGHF
Chain of UniProt Q15759 (whole entry, looked up): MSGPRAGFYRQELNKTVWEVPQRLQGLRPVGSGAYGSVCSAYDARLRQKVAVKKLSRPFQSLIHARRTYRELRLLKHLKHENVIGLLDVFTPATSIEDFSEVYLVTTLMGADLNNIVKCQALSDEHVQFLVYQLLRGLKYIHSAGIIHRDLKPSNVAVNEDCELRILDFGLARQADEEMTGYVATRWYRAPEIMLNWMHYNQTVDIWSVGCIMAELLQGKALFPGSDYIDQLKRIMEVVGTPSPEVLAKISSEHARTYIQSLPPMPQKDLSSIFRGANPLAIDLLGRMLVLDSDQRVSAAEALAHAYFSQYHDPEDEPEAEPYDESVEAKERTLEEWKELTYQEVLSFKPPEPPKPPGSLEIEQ
Chain of UniProt Q9Y271 (whole entry, looked up): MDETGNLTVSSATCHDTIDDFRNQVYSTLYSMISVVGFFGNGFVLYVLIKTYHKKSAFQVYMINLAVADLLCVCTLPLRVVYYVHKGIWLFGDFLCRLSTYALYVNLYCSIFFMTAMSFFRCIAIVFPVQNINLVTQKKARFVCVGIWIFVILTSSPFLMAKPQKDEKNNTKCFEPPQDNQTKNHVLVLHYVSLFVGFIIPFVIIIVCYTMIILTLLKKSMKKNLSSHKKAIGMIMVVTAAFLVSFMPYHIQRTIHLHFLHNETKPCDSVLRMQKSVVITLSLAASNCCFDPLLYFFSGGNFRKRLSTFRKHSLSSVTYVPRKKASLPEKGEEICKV
Chain of UniProt Q96RI8 (whole entry, looked up): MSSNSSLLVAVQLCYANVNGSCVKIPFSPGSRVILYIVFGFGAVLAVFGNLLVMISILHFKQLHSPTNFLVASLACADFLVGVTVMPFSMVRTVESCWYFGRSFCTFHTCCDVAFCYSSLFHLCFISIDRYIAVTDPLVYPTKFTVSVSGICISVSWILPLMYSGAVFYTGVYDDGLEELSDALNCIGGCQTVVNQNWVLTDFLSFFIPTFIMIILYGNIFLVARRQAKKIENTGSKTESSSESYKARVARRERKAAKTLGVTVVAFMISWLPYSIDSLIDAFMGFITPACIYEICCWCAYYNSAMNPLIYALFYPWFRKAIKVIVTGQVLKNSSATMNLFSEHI
Chain of UniProt Q12884 (whole entry, looked up): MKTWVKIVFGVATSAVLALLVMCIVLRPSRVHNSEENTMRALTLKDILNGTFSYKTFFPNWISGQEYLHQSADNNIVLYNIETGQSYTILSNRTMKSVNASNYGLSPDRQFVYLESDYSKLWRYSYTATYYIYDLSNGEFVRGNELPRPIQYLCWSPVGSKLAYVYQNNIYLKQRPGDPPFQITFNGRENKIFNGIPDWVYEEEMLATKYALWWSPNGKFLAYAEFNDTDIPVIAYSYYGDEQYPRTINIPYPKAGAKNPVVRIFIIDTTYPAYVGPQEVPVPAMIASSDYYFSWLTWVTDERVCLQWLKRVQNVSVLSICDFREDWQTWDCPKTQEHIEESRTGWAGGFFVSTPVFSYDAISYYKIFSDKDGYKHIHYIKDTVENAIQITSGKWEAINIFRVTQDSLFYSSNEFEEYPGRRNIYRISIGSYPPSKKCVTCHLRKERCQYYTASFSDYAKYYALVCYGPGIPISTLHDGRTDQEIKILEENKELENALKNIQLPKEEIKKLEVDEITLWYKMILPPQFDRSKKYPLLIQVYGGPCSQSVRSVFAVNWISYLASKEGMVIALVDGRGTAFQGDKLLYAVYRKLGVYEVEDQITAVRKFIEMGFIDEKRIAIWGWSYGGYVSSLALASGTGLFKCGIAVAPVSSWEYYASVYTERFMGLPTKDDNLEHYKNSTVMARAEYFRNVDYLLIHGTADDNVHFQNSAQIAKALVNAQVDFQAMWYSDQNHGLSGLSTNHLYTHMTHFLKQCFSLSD
Chain of UniProt P35408 (whole entry, looked up): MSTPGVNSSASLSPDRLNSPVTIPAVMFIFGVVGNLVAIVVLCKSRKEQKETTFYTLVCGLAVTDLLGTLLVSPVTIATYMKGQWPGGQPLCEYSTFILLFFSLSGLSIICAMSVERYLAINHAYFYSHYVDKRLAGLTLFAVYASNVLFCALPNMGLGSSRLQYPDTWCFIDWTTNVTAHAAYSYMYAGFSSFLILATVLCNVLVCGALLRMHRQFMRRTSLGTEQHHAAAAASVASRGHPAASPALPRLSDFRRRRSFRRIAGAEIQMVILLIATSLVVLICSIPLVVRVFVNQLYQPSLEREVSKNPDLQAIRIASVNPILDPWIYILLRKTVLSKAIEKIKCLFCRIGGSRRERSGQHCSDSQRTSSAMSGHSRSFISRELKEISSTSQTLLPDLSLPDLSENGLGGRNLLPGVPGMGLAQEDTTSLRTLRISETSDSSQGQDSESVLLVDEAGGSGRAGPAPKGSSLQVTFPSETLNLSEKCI
Chain of UniProt Q9Y2H1 (whole entry, looked up): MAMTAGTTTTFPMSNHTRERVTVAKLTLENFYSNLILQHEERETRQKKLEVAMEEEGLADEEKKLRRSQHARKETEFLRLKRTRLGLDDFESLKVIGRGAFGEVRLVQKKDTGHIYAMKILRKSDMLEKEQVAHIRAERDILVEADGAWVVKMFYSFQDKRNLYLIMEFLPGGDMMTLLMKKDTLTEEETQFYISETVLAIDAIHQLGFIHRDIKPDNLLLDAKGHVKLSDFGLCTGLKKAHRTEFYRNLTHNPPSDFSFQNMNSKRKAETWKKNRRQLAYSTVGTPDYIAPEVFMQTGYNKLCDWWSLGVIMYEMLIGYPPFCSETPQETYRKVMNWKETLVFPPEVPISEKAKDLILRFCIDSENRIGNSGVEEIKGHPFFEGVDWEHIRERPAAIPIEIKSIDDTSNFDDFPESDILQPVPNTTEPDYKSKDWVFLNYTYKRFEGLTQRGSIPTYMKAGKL

Br.CN1CCC[C@@H]1Cc1c[nH]c2ccc(CCS(=O)(=O)c3ccccc3)cc12  efficacy (BCHE; concentration not given, Triton): -76.3 ± 22.7%
CCc1cccc(N(C)C(=N)Nc2cccc3ccccc23)c1  IC50 (Plasmodium falciparum; 3D7): 12.6 µM
C[C@H]1CN(c2n[nH]c3nc(N[C@H]4CC[C@H](NS(=O)(=O)CCC(F)(F)F)CC4)ncc23)CCO1  relative abundance (Mitogen-activated protein kinase 11 (MAPK11, Homo sapiens, UniProt Q15759); competitor, Kinobeads competition; HEK293, K562, placenta extract; 0.8 µM; reference: vehicle): 0.42
O=C(Nc1cccnn1)N1CCC(=Cc2cccc(Oc3ccc(C(F)(F)F)cn3)c2)CC1  inhibition (Prostaglandin E2 receptor EP4 subtype (PTGER4, Homo sapiens, UniProt P35408); binding, measured: EP4; 10 µM, human, together with: [3H]prostaglandin E2): 52%
CN1CCN(c2cc(-c3ccncc3)c(-c3ccc4ccccc4c3)nn2)CC1  activation (Cysteinyl leukotriene receptor 1 (CYSLTR1, Homo sapiens, UniProt Q9Y271); agonist, FLIPR; 12.5 µM): -2%
C[C@@H](C1=C(CCN(C)C)Cc2ccccc21)c1ccccn1.O=C(O)/C=C\C(=O)O  efficacy (BCHE; inhibitor; Triton): -103 ± 7.19%
COc1ccc(N2C(=O)N(c3c(C)cccc3Cl)Cc3cnc(Nc4ccc(C5CCN(C)CC5)cc4OC)nc32)nc1  inhibition (Serine/threonine-protein kinase 38-like (STK38L, Homo sapiens, UniProt Q9Y2H1); kinase activity, inhibitor; 0.5 µM, NDR2): 7.47%
O=C(Nc1cnccc1Cl)N1CCN(Cc2ccc3c(c2)OC(F)(F)O3)CC1  inhibition (Abhydrolase domain-containing protein 11 (Rattus norvegicus, UniProt D3ZXK4); probe labelling, inhibitor, competitive ABPP with azido-FP probe, measured: Abhd11; rat brain soluble fraction; 10 µM): 2.2%
CNC1(c2ccccc2Cl)CCCCC1=O (racemic)  inhibition (D(2) dopamine receptor (DRD2, Homo sapiens, UniProt P14416); radioligand binding, antagonist, radioligand displacement; 30 µM, long isoform): 1%
O=C(c1ccc(Cl)cc1)N1CCN2C(=O)N(OC(=O)N3CCOc4ccccc43)C(=O)C2C1 (stereo not drawn)  median protein ratio (Prolyl endopeptidase FAP (FAP, Homo sapiens, UniProt Q12884); MS-based ABPP; SW-620 conditioned medium; 10 µM, 1 h, 37 °C; reference: compound over DMSO, lower = more inhibition): 0.96
C[N+](C)(C)CCCCCCCCCC[N+](C)(C)C.[Br-].[Br-]  IC50 (BCHE; enzyme activity, inhibitor; Triton): inactive
CN(C(=O)n1cnc(-c2ccc[n+]([O-])c2)c1)C1CCCCC1  inhibition (Alpha-1B adrenergic receptor (Adra1b, Rattus norvegicus, UniProt P15823); radioligand binding; 50 µM, together with: [3H]prazosin): 6%
Oc1ccc2c3c1O[C@H]1[C@@H](O)CC[C@@]4(O)[C@@H](C2)N(CC2CCC2)CC[C@]314  log2 fold change (Trace amine-associated receptor 6 (TAAR6, Homo sapiens, UniProt Q96RI8); β-arrestin recruitment, TANGO luminescence, measured: TAAR6; concentration not given; reference: basal luminescence): 0.007
C[N+](C)(CCOc1ccccc1)Cc1cccs1.[I-]  efficacy (BCHE; concentration not given, Triton): -80.2 ± 9.96%
Cc1scc2c1N(C(=O)CN1CCN(C)CC1)c1ccccc1NC2=O  IC50 (Plasmodium falciparum; 3D7): 3.16 µM

A few entries again:
O=C(Nc1cccnn1)N1CCC(=Cc2cccc(Oc3ccc(C(F)(F)F)cn3)c2)CC1  inhibition (Prostaglandin E2 receptor EP4 subtype (PTGER4, Homo sapiens, UniProt P35408); binding, measured: EP4; 10 µM, human, together with: [3H]prostaglandin E2): 52%
